Results of several laboratories.
Several values in a cell are separate wells, animals, samples, runs or records. Numbers after ± are the reported error.

| Compound | tested on | test | test system | conditions | scale | endpoint | result |
| --- | --- | --- | --- | --- | --- | --- | --- |
| COC(=O)C1=C(C)Oc2ccc(Br)cc2C1C(C(C)=O)C(=O)OC (stereo not drawn) | 3T3-L1 | cell growth or viability, MTT |  | 72 h |  | IC50 | > 100 µg/mL |
| Cc1ncsc1-c1ccc(C(C)NC(=O)C2CC(O)CN2C(=O)C(NC(=O)CCCCCCCCCCN2CCCC(Nc3ncc(Cl)c(Nc4ccccc4S(=O)(=O)C(C)C)n3)C2)C(C)(C)C)cc1 (stereo not drawn) | 22Rv1 | RNA-seq, item: LIFR-AS1 |  | concentration not given | relative to: DMSO | log2 fold change | -2.05 |
| CC[C@@H](C)[C@@H](NC(=O)[C@@H](C)NC(=O)[C@H](N)Cc1c[nH]cn1)C(=O)N[C@H](Cc1ccc(O)cc1)C(=O)N1CCC[C@@H]1C(=O)N[C@H](CCCNC(=N)N)C(=O)N[C@H](Cc1c[nH]cn1)C(=O)N[C@H](CO)C(=O)N[C@H](Cc1c[nH]c2ccccc12)C(=O)N[C@@H](C(=O)N[C@H](Cc1c[nH]c2ccccc12)C(=O)N[C@H](CCC(=O)O)C(=O)N[C@H](CCCCN)C(=O)N[C@H](CCCCN)C(=O)N[C@H](CC(C)C)C(=O)N[C@H](CCC(=O)O)C(=O)N[C@@H](C(=O)N[C@H](C)C(=O)N[C@@H](C(=O)N[C@H](CC(N)=O)C(=O)N[C@H](CC(C)C)C(=O)N[C@H](C)C(=O)N[C@H](Cc1c[nH]c2ccccc12)C(=O)N[C@@H](C(=O)N[C@H](C)C(=O)NCC(=O)N[C@H](CC(N)=O)C(=O)N[C@H](CO)C(=O)N[C@H](CC(N)=O)C(=O)N[C@H](CCCCN)C(=O)N[C@H](Cc1c[nH]c2ccccc12)C(=O)N[C@@H](C(=O)N[C@H](Cc1c[nH]c2ccccc12)C(=O)N[C@H](CCCCN)C(=O)O)[C@H](C)O)[C@H](C)O)C(C)C)[C@H](C)O)[C@H](C)O | MEC1 | cell growth or viability, flow cytometry |  | 90 min |  | IC50 | 5 µM |
| O=C(O)C(CO)NCc1cc(Cl)c(OCc2cccc(-c3ccccc3)c2Br)cc1OCc1cccnc1 (stereo not drawn) | HK-2 | cell growth or viability, MTT |  |  |  | IC50 | > 10 µM |
| CCCCCCCCCCCC(=O)Oc1c(C)c(OC)c2c(/C=C/c3ccccc3)c(CCCCCCCCCC)c(=O)oc2c1C | FaDu | cell growth or viability, SRB |  | 72 h |  | IC50 | > 50 µM |
| COC(=O)N1c2ccc3c(nc(Cc4ccccc4)n3[C@@H]3CCC[C@@H](C(=O)O)C3)c2CC[C@@H]1C | HCC1806 | cell growth or viability, ATP luminescence |  | 10 days |  | IC50 | 1.48 µM |
| C=CC(=O)Nc1cccc(Cn2ncc3cnc(Nc4cnn(CCOC)c4)nc32)c1 | human QSK | KINOMEscan |  | 100 nM | relative to: control | binding | 100% |
| C=CC(=O)N1CCCC(n2c(=O)c3ncccc3n(Cc3ccc(Oc4ccccc4)cc3)c2=O)C1 (stereo not drawn) | JeKo-1 | cell growth or viability, MTT |  | 72 h |  | IC50 | 4 µM |
| CN1CCCNC(=O)c2cccc(c2)C(=O)NCCCN(C)CCCNc2cccc3c2C(=O)c2cccc(c2C3=O)NCCC1 | SAS | RNA-Seq, item: CSKMT mRNA |  | 1 µM, 6 h | relative to: untreated cells | log2 fold change | 1.35 |
| N#Cc1c(N)nc2c(c1-c1cccs1)Cc1cc(O)ccc1-2 | HBP-ALL | cell viability, CellTiter-Glo |  |  | no inhibition at 100 µM | IC50 | 52.3 µM |
| CC(C)(C)c1cnc(CSc2cnc(NC(=O)C3CCN(C(=O)CCCCCCN4Cc5cc6c(cc5C4)C(=O)N(C4CCC(=O)NC4=O)C6=O)CC3)s2)o1 (stereo not drawn) | RH5 rhabdomyosarcoma | cell viability, MTT |  |  |  | IC50 | 0.0125 ± 0.0071 µM |
| C1=[N+]2CCCC[N+]3=Cc4ccc5[n]4[Au-]23[n]2c1ccc2-c1nc2ccccc2nc1-5.F[P-](F)(F)(F)(F)F | BT-549 |  |  | NCI60 five-dose screen |  | IC50 | 3.5 µM |
| CC1(C)CC(=O)C2=C(C1)Oc1cc(O)ccc1C2c1c[nH]c2ccccc12 (stereo not drawn) | 3T3-L1 | cell growth or viability, MTT |  | 72 h |  | IC50 | 25.9 µg/mL |
| C/C(=N\Nc1ncnc2sc3c(c12)CCCC3)c1cc(O)ccc1O | BJAB | cell growth or viability, CCK-8 |  |  |  | IC50 | 0.255 µM |
| NCc1ccc2c(c1)CN(C1CCC(=O)NC1=O)C2=O (stereo not drawn) | SNU-398 | cell growth or viability, ATP luminescence |  |  |  | IC50 | > 22.8 µM |
| Cc1cc(C(=O)N2CCNCCNCCNCC2)c(O)c(C(=O)N2CCNCCNCCNCC2)c1 | PK-59 | cell growth or viability, MTT |  | 24 h |  | IC50 | > 10000 µM |
| N#Cc1c(N)nc2c(c1-c1ccc(CO)o1)Cc1cc(O)ccc1-2 | HBP-ALL | cell viability, CellTiter-Glo |  |  | no inhibition at 100 µM | IC50 | 6.3 µM |
| Cc1ccc(-n2cc(CSc3nc4ccccc4n3Cc3cn(-c4ccc(C)cc4)nn3)nn2)cc1 | HEK293 | cell viability, MTT |  |  |  | IC50 | 30.2 µg/mL |

| Compound | tested on | test | test system | conditions | scale | endpoint | result |
| --- | --- | --- | --- | --- | --- | --- | --- |
| CNS(=O)(=O)Nc1nccc(Cc2c(C)c3ccc(Oc4ncccc4F)cc3oc2=O)c1F | MEC1 | cell viability |  | 7 days |  | IC50 | > 1 µM |
| O=C(NCCOCCNC(=O)c1cc2ccccc2c2ccccc12)c1cc(C(=O)N2CCNCCNCCNCC2)c(O)c(C(=O)N2CCNCCNCCNCC2)c1 | PK-59 | cell growth or viability, MTT |  | 24 h |  | IC50 | > 1000 µM |
| CN1CCC(N[C@H]2CCc3[nH]c4c(C(N)=O)ccc(-c5ccccc5Cl)c4c3C2)CC1 | BGC-823 | cell growth or viability |  |  |  | IC50 | 1.48 µM |
| C=C(C)C(C)(C)CCC(C)C1CCC2(C)C3CCC4C(C)C(O)CCC45CC35CCC12C (stereo not drawn) | T47D breast cancer | cell viability, MTT | DMEM with 10% FBS | 48 h |  | IC50 | > 200 µM |
| CCCCCCCCCCCC(=O)Oc1c(C)c(OC)c2c(c1C)OC(=O)[C@@H](CCCCCCCCCC)[C@]2(O)/C=C/c1ccccc1 (relative stereo) | FaDu | cell growth or viability, SRB |  | 72 h |  | IC50 | > 50 µM |
| CCCC(=O)[O][Pt]([Cl])([Cl])[O]C(=O)CCC.N.N | A549/DDP cisplatin-resistant | MTT |  | 48 h, non-transfected |  | IC50 | 18.3 ± 4.02 µM |
| COc1cc(-c2cn(C)c(=O)c3cnccc23)c(OC)cc1Cn1ccnc1 | Kasumi 1 | cell growth or viability, ATP luminescence |  |  |  | IC50 | 0.4 µM |
| O=C1CCC(N2C(=O)c3ccc(N4CC(C(=O)N5CC(CN6CCC(CNC(=O)c7cccc(-c8noc(C(F)(F)F)n8)c7)(c7nc(-c8ccccc8)cs7)CC6)C5)C4)cc3C2=O)C(=O)N1 (stereo not drawn) | JeKo-1 | cell growth or viability |  | 7 days |  | IC50 | 1.48 µM |
| CCCCCC(=O)[O][Pt]([Cl])([Cl])[O]C(=O)CCCCC.N.N | A549/DDP cisplatin-resistant | MTT |  | 48 h, non-transfected |  | IC50 | 6.05 ± 5.09 µM |
| CC1CCC(C(C)C)C(OC(=O)Cn2c(-c3ccc(Br)cc3)[n+](C)c3ccccc32)C1.[Cl-] (stereo not drawn) | Trypanosoma cruzi | reporter mRNA translation, inhibitor, item: Renilla luciferase mRNA | cell-free extract | concentration not given, test 1 | relative to: positive over negative control | translation activity | 82.3% and 74.3% |
| CC(C)c1ccc(N(C)c2ccc3c(c2)OCC[C@H]3CNc2cnccc2C(=O)O)cc1 | SNU-5 | cell growth or viability, ATP luminescence |  | 7 days |  | IC50 | 0.146 µM |
| CCOc1cncc(-c2ccc(NC(=O)C3(c4ccnc(NS(=O)(=O)C5CC5)n4)CCOCC3)nc2)n1 | lung cancer | cell viability, CellTiter-Glo | DMSO 0.1% | 72 h, line code 1647 |  | IC50 | 0.522 µM |
| COc1ccc(CCN(C)CCCC(C#N)(c2ccc(OC)c(OC)c2)C(C)C)cc1OC (stereo not drawn) | Trypanosoma cruzi | reporter mRNA translation, inhibitor, item: Renilla luciferase mRNA | cell-free extract | concentration not given, test 3 | relative to: positive over negative control | translation activity | 86.4% |
| CCn1nc(Cl)c2c1-c1cnc(N)c(c1)O[C@H](C)c1cc(F)ccc1-c1nn(C)cc1C2 | Ba/F3 EML4-ALK variant 1 S1206Y | cell viability |  |  |  | IC50 | 0.00227 µM |
| COC1CN([C@H]2CC[C@H]([C@@]3(C)Oc4c(Cl)cc(C(=O)NCc5c(SC)cc(C)[nH]c5=O)c(C)c4O3)CC2)C1 |  | RNA-seq, item: FAM131B | human, whole blood | dose not given, 24 h | relative to: pretreatment baseline | log2 fold change | 2.26 |
| Cn1ncc(-c2ccc3c(=O)[nH]nc(CN)c3c2)c1-c1c(F)c(Cl)cc(OC2CC2)c1C#N | NCI-H1648 | cell viability, inhibitor, CellTiter-Glo |  | 120 h, baseline-subtracted |  | IC50 | 0.07 µM |
| COc1c(C)c(OCc2ccccc2)c(C)c(OCc2ccccc2)c1C(=O)/C=C/c1ccccc1 | FaDu | cell growth or viability, SRB |  | 72 h |  | IC50 | > 50 µM |
| C=C1C(=O)OC2C1CCC(C)(O)C13C=CC(C)(C21)C1(C3)C(=O)OC2C3C(C)=CC(=O)C3=C(C)CCC21 (stereo not drawn) | AML12 | lipid accumulation, Nile Red staining |  | with: palmitate/oleate |  | IC50 | 7.12 ± 0.73 µM |

For quick reference, copied from above:
| Compound | tested on | test | test system | conditions | scale | endpoint | result |
| --- | --- | --- | --- | --- | --- | --- | --- |
| CC(C)(C)c1cnc(CSc2cnc(NC(=O)C3CCN(C(=O)CCCCCCN4Cc5cc6c(cc5C4)C(=O)N(C4CCC(=O)NC4=O)C6=O)CC3)s2)o1 (stereo not drawn) | RH5 rhabdomyosarcoma | cell viability, MTT |  |  |  | IC50 | 0.0125 ± 0.0071 µM |
| C=C(C)C(C)(C)CCC(C)C1CCC2(C)C3CCC4C(C)C(O)CCC45CC35CCC12C (stereo not drawn) | T47D breast cancer | cell viability, MTT | DMEM with 10% FBS | 48 h |  | IC50 | > 200 µM |
| CC(C)c1ccc(N(C)c2ccc3c(c2)OCC[C@H]3CNc2cnccc2C(=O)O)cc1 | SNU-5 | cell growth or viability, ATP luminescence |  | 7 days |  | IC50 | 0.146 µM |
| N#Cc1c(N)nc2c(c1-c1ccc(CO)o1)Cc1cc(O)ccc1-2 | HBP-ALL | cell viability, CellTiter-Glo |  |  | no inhibition at 100 µM | IC50 | 6.3 µM |
| COC1CN([C@H]2CC[C@H]([C@@]3(C)Oc4c(Cl)cc(C(=O)NCc5c(SC)cc(C)[nH]c5=O)c(C)c4O3)CC2)C1 |  | RNA-seq, item: FAM131B | human, whole blood | dose not given, 24 h | relative to: pretreatment baseline | log2 fold change | 2.26 |
